# Assay results of several laboratories.
# Lines come from different studies, so protocols differ. Numbers after ± are the reported error.
Compound,assay,system,conditions,half-life [h]
NC(=O)c1cnc2[nH]ccc2c1NC1C2CC3CC1CC(OS(=O)(=O)O)(C3)C2 (stereo not drawn),,"Japanese adults, normal hepatic function, plasma","oral, 150 mg single dose",10.8
C[C@H](NC(=O)COC(=O)[C@H](C)NC(=O)CO)C(=O)O,,water,"pH 2, 65 °C",34.4
[2H]C1([2H])C[C@@H](C[C@@H](C#N)NC(=O)[C@@H]2[C@@H]3[C@H](CN2C(=O)[C@@H](NC(=O)C(F)(F)F)C(C)(C)C)C3(C)C)C(=O)N1,,human liver microsomes,microsomes 0.5 mg/mL,1.95
[2H]C([2H])(c1ccccc1)C([2H])([2H])N1C(=O)CC(=O)N(C([2H])([2H])C([2H])([2H])c2ccccc2)C1=O,metabolic stability,human liver microsomes,,1.07
C[C@H](N)C(=O)OCCOCn1cnc2c(=O)[nH]c(N)nc21,,DPBS,"pH 7.4, 34 °C, chemical hydrolysis",2.88 ± 0.07
CCOC(=O)CCC(=O)Oc1ccc(/C=C/C(=O)/C=C(O)/C=C/c2ccc(OC(=O)CCC(=O)OCC)c(OC)c2)cc1OC,,rat plasma,"1.5 µM, 37 °C",0.00152 ± 0.000103
O=[N][Fe]1([N]=O)[S](CCO)[Fe]([N]=O)([N]=O)[S]1CCO,,PBS,"25 µM, pH 7.4, 37 °C, added: L-cysteine 150 µM",0.4 ± 0.1
CCC(CC)[C@H](NC(C)=O)[C@@H]1[C@H](O)[C@@H](C(=O)OCCOC(=O)[C@@H](N)C(C)C)C[C@H]1NC(=N)N,,phosphate buffer,"pH 6.8, 37 °C, chemical stability",3.57 ± 0.517
N=C(N)NCCC[C@H](NC(=O)[C@H](CCCNC(=N)N)NC(=O)[C@H](CCCNC(=N)N)NC(=O)[C@H](CCCNC(=N)N)NC(=O)[C@H](CCCNC(=N)N)NC(=O)[C@H](CCCNC(=N)N)NC(=O)[C@@H]1CCCN1C(=O)[C@@H]1CCCN1C(=O)[C@@H]1C[C@@H](O)CN1C(=O)[C@@H]1C[C@@H](O)CN1C(=O)CNC(=O)CNC(=O)[C@@H]1CCCN1C(=O)[C@@H]1C[C@@H](O)CN1C(=O)[C@@H]1C[C@@H](O)CN1C(=O)CNC(=O)[C@@H]1CCCN1C(=O)[C@@H]1C[C@@H](O)CN1C(=O)[C@@H]1C[C@@H](O)CN1C(=O)[C@@H]1CCCN1C(=O)CNC(=O)CNC(=O)CNC(=O)[C@@H]1CCCN1C(=O)CNC(=O)[C@@H]1C[C@@H](O)CN1C(=O)[C@@H]1C[C@@H](O)CN1C(=O)[C@@H]1CCCN1C(=O)[C@@H]1CCCN1C(=O)CNC(=O)CNC(=O)CNC(=O)CCNC(=S)Nc1ccc2c(c1)C(=O)OC21c2ccc(O)cc2Oc2cc(O)ccc21)C(N)=O,RP-HPLC,25% human serum in RPMI,37 °C,13.9
CN1CCN(c2cc(-c3ccccc3CO)c(N(C)C(=O)C(C)(C)c3cc(C(F)(F)F)cc(C(F)(F)F)c3)cn2)CC1,,"healthy volunteers, plasma","oral, dose not given, netupitant-palonosetron fixed-dose combination",67.8
C=C(CC)C(=O)c1ccc(OCC(=O)NCCCC[18F])c(Cl)c1Cl,,,intact radiotracer in vivo,0.767
CC[C@H](C)[C@H](NC(=O)CNC(=O)CNC(=O)c1ccc2c(c1)C(=O)OC21c2ccc(O)cc2Oc2cc(O)ccc21)C(=O)N[C@@H](Cc1ccc(O)cc1)C(=O)N[C@@H](C)C(=O)N(C)[C@@H](C)C(=O)N1CCC[C@H]1C(=O)N(C)[C@@H](Cc1ccccc1)C(=O)N[C@@H](CCCCN)C(=O)N[C@@H](CCCCN)C(=O)N[C@@H](CCCCN)C(=O)N[C@@H](C)C(N)=O,CE-LIF,Baf/BCR-ABL cytosolic lysate,"1 µM, pH 7.4, 37 °C",0.43
Cc1ccc(C(C)C)cc1.[Cl][Au].[Cl][Ru][Cl].c1ccc(P(CP(c2ccccc2)c2ccccc2)c2ccccc2)cc1,NMR,DMSO-d6,,≥ 48
Cc1nc(-c2ccc(NC(=O)c3cccs3)cc2Cl)no1,plasma stability,human plasma,"5 µM, 37 °C",> 2
NS(=O)(=O)c1ccc(NC(=O)NN[C@@H]2O[C@H](CO)[C@@H](O)[C@H](O)[C@@H]2O)cc1,,mouse liver microsomes,1 µM,20.6

# For quick reference, copied from above:
Compound,assay,system,conditions,half-life [h]
C[C@H](NC(=O)COC(=O)[C@H](C)NC(=O)CO)C(=O)O,,water,"pH 2, 65 °C",34.4
